Experimental data of several laboratories.
A part holds a random share of what one study measured. “And” joins repeats or separate records; there may be more than shown.
Chain of UniProt P10721 (whole entry, unmodified, looked up): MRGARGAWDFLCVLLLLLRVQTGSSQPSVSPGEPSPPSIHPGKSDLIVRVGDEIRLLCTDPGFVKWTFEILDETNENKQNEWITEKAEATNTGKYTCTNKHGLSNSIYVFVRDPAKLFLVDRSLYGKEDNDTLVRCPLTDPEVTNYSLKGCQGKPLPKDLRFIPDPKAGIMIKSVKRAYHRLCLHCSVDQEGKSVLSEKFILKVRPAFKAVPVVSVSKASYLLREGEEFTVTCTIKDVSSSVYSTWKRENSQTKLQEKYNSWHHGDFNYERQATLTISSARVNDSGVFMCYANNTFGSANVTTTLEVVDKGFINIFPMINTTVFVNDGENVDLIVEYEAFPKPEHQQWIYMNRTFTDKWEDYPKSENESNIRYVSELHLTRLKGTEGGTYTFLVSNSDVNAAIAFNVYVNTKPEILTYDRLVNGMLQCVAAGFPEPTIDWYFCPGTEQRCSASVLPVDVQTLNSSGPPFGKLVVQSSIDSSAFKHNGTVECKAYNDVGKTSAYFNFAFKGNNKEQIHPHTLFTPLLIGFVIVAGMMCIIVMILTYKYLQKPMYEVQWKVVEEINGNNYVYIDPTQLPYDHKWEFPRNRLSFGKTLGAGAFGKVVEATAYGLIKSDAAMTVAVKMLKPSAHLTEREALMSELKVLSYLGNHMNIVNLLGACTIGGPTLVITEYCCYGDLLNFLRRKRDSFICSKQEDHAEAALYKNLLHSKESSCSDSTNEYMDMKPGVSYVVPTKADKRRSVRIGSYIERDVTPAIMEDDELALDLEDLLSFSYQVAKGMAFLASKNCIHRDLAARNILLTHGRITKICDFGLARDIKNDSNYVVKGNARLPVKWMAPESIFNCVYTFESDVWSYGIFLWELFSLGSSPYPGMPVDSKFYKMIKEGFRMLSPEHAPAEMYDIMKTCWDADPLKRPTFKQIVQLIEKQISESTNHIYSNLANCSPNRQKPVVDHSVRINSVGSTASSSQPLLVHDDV
Chain of UniProt P42336 (whole entry, unmodified, looked up): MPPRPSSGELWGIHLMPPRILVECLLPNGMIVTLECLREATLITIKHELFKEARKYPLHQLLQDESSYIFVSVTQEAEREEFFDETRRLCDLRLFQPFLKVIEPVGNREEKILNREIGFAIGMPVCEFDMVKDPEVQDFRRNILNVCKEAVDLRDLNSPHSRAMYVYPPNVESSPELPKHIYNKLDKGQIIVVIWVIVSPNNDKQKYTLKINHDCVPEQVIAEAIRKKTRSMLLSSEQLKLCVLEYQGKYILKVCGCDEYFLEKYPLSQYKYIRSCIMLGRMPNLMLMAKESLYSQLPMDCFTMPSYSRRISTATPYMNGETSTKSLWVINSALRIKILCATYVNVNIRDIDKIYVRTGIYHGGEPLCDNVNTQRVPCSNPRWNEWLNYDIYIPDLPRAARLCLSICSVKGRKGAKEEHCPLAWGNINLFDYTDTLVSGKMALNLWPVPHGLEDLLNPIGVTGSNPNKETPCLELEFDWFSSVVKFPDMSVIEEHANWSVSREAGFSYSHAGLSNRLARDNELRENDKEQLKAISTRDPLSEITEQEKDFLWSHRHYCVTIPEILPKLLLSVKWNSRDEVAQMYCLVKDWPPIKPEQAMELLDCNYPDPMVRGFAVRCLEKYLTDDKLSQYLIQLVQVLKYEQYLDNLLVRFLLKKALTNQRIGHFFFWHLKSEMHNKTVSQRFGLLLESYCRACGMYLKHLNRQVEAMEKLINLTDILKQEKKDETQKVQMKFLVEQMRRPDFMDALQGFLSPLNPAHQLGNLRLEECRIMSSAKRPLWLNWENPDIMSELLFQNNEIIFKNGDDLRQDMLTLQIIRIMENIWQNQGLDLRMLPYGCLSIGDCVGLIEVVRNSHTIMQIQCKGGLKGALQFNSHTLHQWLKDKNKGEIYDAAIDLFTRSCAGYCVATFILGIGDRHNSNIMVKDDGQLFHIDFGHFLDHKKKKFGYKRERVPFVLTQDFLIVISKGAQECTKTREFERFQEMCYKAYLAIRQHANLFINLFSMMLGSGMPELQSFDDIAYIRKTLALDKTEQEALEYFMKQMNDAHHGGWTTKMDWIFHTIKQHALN
Chain of UniProt Q8NFD2 (whole entry, looked up): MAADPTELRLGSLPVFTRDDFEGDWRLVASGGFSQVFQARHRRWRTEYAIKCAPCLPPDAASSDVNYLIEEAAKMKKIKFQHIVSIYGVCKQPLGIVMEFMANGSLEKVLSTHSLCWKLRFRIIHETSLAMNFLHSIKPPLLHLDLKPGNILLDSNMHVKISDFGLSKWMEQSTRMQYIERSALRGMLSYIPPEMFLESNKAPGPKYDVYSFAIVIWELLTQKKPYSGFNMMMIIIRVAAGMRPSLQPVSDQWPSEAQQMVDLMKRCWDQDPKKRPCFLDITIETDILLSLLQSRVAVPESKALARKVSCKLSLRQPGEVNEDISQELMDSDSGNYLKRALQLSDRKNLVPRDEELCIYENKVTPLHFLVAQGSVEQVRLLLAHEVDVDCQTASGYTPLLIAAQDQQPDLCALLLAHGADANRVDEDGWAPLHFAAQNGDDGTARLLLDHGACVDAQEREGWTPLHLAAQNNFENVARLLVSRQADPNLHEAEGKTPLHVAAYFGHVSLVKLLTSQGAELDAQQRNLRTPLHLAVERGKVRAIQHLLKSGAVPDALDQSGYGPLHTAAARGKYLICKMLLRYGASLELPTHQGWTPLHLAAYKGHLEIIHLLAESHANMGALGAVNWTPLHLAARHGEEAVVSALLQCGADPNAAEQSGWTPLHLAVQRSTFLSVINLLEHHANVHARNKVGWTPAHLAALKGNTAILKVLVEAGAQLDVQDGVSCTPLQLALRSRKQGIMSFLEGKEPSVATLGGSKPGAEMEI
Chain of UniProt Q14680 (whole entry, looked up): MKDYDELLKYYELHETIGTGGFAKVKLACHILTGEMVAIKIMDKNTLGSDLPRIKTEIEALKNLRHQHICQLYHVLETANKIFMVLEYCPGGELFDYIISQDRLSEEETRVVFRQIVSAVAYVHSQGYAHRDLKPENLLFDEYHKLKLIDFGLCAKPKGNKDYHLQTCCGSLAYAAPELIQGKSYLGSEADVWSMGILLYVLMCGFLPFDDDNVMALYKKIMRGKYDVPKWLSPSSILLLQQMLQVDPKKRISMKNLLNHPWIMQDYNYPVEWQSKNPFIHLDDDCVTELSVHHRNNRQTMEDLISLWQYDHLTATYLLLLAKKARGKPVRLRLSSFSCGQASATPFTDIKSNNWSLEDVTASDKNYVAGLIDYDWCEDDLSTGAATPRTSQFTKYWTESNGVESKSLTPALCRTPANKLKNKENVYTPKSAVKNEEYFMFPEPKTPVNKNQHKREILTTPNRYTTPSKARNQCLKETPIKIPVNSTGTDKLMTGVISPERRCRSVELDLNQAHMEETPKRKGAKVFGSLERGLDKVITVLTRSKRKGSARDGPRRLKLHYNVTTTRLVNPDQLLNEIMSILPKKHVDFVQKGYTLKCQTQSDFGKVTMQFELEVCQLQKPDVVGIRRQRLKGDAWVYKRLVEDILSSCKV
Chain of UniProt P07947 (whole entry, looked up): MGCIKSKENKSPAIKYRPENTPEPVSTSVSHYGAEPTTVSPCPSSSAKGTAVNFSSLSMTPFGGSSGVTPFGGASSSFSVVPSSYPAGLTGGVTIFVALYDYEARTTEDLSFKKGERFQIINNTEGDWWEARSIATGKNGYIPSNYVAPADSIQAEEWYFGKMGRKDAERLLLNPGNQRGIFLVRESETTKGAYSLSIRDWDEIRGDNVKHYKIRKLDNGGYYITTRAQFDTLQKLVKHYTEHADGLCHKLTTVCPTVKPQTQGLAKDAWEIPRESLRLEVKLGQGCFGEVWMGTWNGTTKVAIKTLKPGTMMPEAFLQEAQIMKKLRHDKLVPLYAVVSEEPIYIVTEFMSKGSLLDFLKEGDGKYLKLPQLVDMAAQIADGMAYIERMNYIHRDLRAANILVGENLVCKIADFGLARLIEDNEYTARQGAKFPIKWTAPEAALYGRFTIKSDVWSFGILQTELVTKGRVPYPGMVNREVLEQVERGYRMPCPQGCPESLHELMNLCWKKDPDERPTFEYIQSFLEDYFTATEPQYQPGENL
Chain of UniProt Q9HAZ1 (whole entry, looked up): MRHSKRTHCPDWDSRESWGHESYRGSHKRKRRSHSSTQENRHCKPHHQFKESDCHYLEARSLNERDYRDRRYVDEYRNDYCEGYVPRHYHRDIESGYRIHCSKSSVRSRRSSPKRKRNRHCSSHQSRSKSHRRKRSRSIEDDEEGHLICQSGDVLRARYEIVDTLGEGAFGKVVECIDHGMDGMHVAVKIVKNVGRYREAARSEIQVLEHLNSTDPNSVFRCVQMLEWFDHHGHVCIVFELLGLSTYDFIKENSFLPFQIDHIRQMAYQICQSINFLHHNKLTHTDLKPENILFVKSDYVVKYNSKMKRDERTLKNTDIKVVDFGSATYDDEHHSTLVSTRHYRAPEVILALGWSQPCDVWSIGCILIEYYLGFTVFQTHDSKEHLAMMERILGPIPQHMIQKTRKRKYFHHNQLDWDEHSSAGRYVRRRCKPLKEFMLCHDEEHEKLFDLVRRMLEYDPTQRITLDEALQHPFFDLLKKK

Study 1 — organism: Sarcocystis neurona; effect on: parasite growth; tested at: 10 µM; notes: secondary screen
Compound	inhibition
C[C@]12Cc3c[nH]nc3C[C@@H]1CC[C@@H]1[C@@H]2CC[C@@]2(C)[C@H]1CC[C@]2(C)O	4.5%
Br.COc1ccc2c(c1)[C@]13CCCC[C@@H]1[C@H](C2)N(C)CC3	-34.5%
Oc1cc(Cl)ccc1Oc1ccc(Cl)cc1Cl	20.2%
C[C@]12CCC(=O)C=C1CC[C@@H]1[C@@H]2CC[C@@]2(C)[C@H]1CC[C@]2(C)O	11.4%

Study 2 — cell line: mouse MPNST tumor cells; method: high-content immunofluorescence imaging; measured: nuclear SOX9; tested at: 10 µM; time: 12 h; notes: mean of 2 replicates; reference: DMSO control; reading: higher = more nuclear SOX9
Structure (SMILES)	nuclear SOX9 intensity
Oc1ccc2c3c1O[C@H]1c4[nH]c5ccccc5c4C[C@@]4(O)[C@@H](C2)N(CC2CC2)CC[C@]314	156 % of DMSO
CN1C(=O)C(Cc2ccc3ccccc3c2)N=C(c2ccc(O)cc2)c2cc(Cl)ccc21 (stereo not shown)	117 % of DMSO
CN1[C@@H]2C[C@@H](OC(=O)[C@H](CO)c3ccccc3)C[C@H]1[C@@H]1O[C@@H]12	103 % of DMSO
O=C(O)CCCc1ccc(N(CCCl)CCCl)cc1	109 % of DMSO

Study 3 — method: CCK-8
SMILES: CC[C@@H](C)c1nc2cc(Nc3ccnc4ccc(S(=O)(=O)C(C)C)cc34)ccc2s1.Cl
cell line	setting	survival
L929 RIPK3-/- reexpressing RIPK3 K51A	1.563 µM	96.2% and 96% and 97.4% and 99.2%
L929 RIPK3-/- reexpressing RIPK3 K51A/R69H	1.563 µM	88.9% and 88.7% and 98.1% and 93.7% and 96.7%
L929 RIPK3-/- reexpressing RIPK3 K51A	1.563 µM, together with: zVAD	105% and 85.9% and 91.5% and 104%
L929 RIPK3-/- reexpressing RIPK3 K51A	12.5 µM, together with: zVAD	99.5% and 114% and 102%
L929 RIPK3-/- reexpressing RIPK3 K51A	3.125 µM, together with: zVAD	90.3% and 93.9% and 88% and 102% and 100%

Study 4 — effect on: enzyme activity; mode: inhibitor; tested at: 0.5 µM; reference: control
SMILES: O=C1NC(=O)c2c1c1c3ccccc3n3c1c1c2c2ccccc2n1[C@H]1CC[C@@H]3O1
target	remaining activity [%]
FES (Homo sapiens, UniProt P07332)	42.1
BRSK2 (Homo sapiens, UniProt Q8IWQ3)	13.6
MELK (Homo sapiens, UniProt Q14680)	7.13

Study 5 — effect on: enzyme activity; mode: inhibitor; tested at: 10 µM
Target: Calcium/calmodulin-dependent protein kinase type II subunit alpha (CAMK2A, Homo sapiens, UniProt Q9UQM7)
Chain of UniProt Q9UQM7 (whole entry, looked up): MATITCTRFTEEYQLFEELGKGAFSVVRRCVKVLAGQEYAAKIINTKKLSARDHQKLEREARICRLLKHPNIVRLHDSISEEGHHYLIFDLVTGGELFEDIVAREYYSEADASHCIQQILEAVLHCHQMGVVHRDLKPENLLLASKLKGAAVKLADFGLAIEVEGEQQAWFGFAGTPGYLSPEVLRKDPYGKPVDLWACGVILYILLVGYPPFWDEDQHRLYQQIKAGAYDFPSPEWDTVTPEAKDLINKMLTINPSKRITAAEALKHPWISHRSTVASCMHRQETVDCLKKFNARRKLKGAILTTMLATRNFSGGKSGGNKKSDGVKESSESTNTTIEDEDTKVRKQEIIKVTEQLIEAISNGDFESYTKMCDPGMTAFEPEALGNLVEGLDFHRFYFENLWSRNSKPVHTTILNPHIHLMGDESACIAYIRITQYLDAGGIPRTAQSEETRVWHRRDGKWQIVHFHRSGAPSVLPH
SMILES	inhibition
CN=C(N)N	-58%
c1cncc(C2=NCCC2)c1	-1%
C[N+]1(C)[C@@H]2CC[C@H]1CC(OC(=O)C(CO)c1ccccc1)C2 (stereo partly shown)	2%
CC1=CC(=O)c2c(O)cccc2C1=O	-13%

Study 6 — effect on: cell-free assay; method: competition with immobilised ligand; tested at: 1 µM
Structure (SMILES): Cn1cncc1[C@](O)(COc1ccc(C#N)cc1-c1ccc(OC(F)(F)F)cc1)c1ccc(C#N)cc1
target	remaining binding
PTK2B (Homo sapiens, UniProt Q14289)	62%
NTRK3 (Homo sapiens, UniProt Q16288)	80%
YES1 (Homo sapiens, UniProt P07947)	94%
MAP3K12 (Homo sapiens, UniProt Q12852)	100%
STK35 (Homo sapiens, UniProt Q8TDR2)	100%
CLK4 (Homo sapiens, UniProt Q9HAZ1)	94%
RIPK2 (Homo sapiens, UniProt O43353)	100%
SRMS (Homo sapiens, UniProt Q9H3Y6)	79%
CHEK1 (Homo sapiens, UniProt O14757)	97%
PIP5K1C (Homo sapiens, UniProt O60331)	93%
KIT (Homo sapiens, UniProt P10721, V559D/V654A)	100%
FLT4 (Homo sapiens, UniProt P35916)	77%
PIK3CB (Homo sapiens, UniProt P42338)	96%
CSNK1G1 (Homo sapiens, UniProt Q9HCP0)	90%
TLK2 (Homo sapiens, UniProt Q86UE8)	100%
PIK3CA (Homo sapiens, UniProt P42336, I800L)	85%
ANKK1 (Homo sapiens, UniProt Q8NFD2)	100%
Tyrosine-protein kinase ABL1, non-phosphorylated (ABL1, Homo sapiens, UniProt P00519, T315I)	100%
KIT (Homo sapiens, UniProt P10721, T670I/V559D)	84%
KIT (Homo sapiens, UniProt P10721)	100%
STK3 (Homo sapiens, UniProt Q13188)	77%
Tyrosine-protein kinase ABL1, phosphorylated (ABL1, Homo sapiens, UniProt P00519, M351T)	100%
CDK11B (Homo sapiens, UniProt P21127)	100%
LATS2 (Homo sapiens, UniProt Q9NRM7)	100%
PRKAA1 (Homo sapiens, UniProt Q13131)	99%

Study 7 — cell line: A-375; tested at: 100 µM; time: 36 h
Structure (SMILES)	viability
CC(C)=CCOc1c2occc2cc2ccc(=O)oc12	74.7%
CCN(CC)CCOC(=O)C(O)(c1ccccc1)c1ccccc1	94.3%
C#C[C@]1(O)C=C[C@H]2[C@@H]3CCC4=CC(=O)CC[C@@H]4[C@H]3CC[C@@]21CC	15.6%
O=C1CC[C@@]2(O)[C@H]3Cc4ccc(O)c5c4[C@@]2(CCN3CC2CC2)[C@H]1O5	109%
CC(CCc1ccccc1)NC(C)C(O)c1ccc(O)cc1 (stereo not shown)	70%

Mixed results — species: C57BL/6 CES1-/- mouse; route: intravenous; dose: 1 mg/kg
Compound	lymphocyte count
CC(=O)N[C@@H](Cc1c[nH]c2ccccc12)C(=O)N[C@@H](CCC(=O)C=[N+]=[N-])C(=O)OC(C)C	1.96 and 1.69 and 4.18
[N-]=[N+]=CC(=O)CC[C@H](N)C(=O)O	0.48 and 0.69 and 0.57
